# Assay results of several laboratories.
# Compare with care: the assays were run in different laboratories. Numbers after ± are the reported error.
# APP: Amyloid-beta precursor protein (APP, Homo sapiens, UniProt P05067)
# UniProt P05067, sequence (whole entry, looked up): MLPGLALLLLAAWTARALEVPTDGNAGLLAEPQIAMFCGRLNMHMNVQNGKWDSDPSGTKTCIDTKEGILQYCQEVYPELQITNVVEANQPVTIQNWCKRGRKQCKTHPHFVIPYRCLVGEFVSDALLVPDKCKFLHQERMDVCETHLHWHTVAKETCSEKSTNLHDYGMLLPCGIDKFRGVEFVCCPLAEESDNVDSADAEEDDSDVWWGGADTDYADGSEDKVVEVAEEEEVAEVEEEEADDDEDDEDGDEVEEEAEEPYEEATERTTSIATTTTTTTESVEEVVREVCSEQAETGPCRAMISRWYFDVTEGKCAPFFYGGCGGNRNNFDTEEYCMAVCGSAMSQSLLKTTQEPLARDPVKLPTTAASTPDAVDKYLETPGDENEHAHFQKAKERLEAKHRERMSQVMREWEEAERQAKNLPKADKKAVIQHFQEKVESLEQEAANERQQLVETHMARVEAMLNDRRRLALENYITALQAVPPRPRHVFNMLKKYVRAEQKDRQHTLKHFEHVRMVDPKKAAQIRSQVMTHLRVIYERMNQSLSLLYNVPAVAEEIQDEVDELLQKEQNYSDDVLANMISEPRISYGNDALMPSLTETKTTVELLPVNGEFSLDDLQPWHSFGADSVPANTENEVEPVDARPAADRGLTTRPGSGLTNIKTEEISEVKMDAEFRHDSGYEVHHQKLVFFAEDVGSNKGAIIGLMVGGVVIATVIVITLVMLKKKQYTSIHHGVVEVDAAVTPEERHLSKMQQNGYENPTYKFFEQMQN
SMILES,target,test,conditions,how to read,quantity,result
CC[C@H](C)[C@H](NC(=O)[C@@H]1CCCN1C(=O)[C@@H]1CCCN1)C(=O)N[C@@H](C)C(N)=O,APP,"amyloid aggregation, inhibitor, fluorescence","4 µM, 24 h",,inhibition,18.3%
Oc1ccc2c(c1)OC[C@]1(O)Cc3cc(O)c(O)cc3[C@H]21,APP,fibril remodelling,"25 µM, 10 h, pH 7.4, 37 °C, with: preformed Aβ42 fibrils, equimolar",,decrease of ThT fluorescence,> 90%
CC[C@@H](C)[C@@H](NC(=O)[C@@H](N)C(C)C)C(=O)N[C@H](C(=O)N[C@@H](C)C(N)=O)[C@@H](C)CC,APP,"amyloid aggregation, inhibitor, fluorescence","4 µM, 24 h",,inhibition,35.1%
CCCCC/C=C\C/C=C\C/C=C\C/C=C\CCCC(=O)O,APP,"amyloid beta aggregation, inhibitor","100 µM, 3 h, 37 °C",relative to: untreated,ThT fluorescence,decreased
COc1ccc(C=CC(=O)C(C)C(=O)C=Cc2ccc(OC)c(OC(F)(F)F)c2)cc1OC(F)(F)F (centres unmarked),APP,"Aβ aggregation, SDS-PAGE western blot, measured: Aβ1-42 75-200 kDa band","30 µM, 24 h, 37 °C, with: Aβ1-42 10 µM",relative to: DMSO,band density,155 ± 12%
CC[C@H](C)[C@@H]1NC(=O)[C@H]([C@@H](C)O)NC(=O)[C@H](Cc2ccc(O)cc2)NC(=O)[C@H](CCCNC(=N)N)NC(=O)[C@@H]2CCCN2C(=O)[C@H]2CCCN2C(=O)[C@H]([C@@H](C)O)NC(=O)[C@H](C(C)C)NC(=O)[C@H](C(C)C)NC(=O)[C@H](CCCCN)NC(=O)[C@H](CO)NC(=O)[C@H](CCC(N)=O)NC(=O)[C@H](CO)NC(=O)[C@H](Cc2ccc(O)cc2)NC(=O)[C@H](CO)NC(=O)[C@H](Cc2ccc(O)cc2)NC(=O)[C@@H]2CCCN2C(=O)[C@H](CO)NC(=O)[C@H](CC(C)C)NC(=O)[C@H](CC(C)C)NC(=O)[C@H](C)NC(=O)[C@H](C)NC1=O,"Amyloid-beta precursor protein, Aβ40 (APP, Homo sapiens, UniProt P05067)","proteolysis by proteinase K, measured: amyloid beta","1.4 µM, 24 h preincubation, 37 °C, with: 20 µM amyloid beta, proteinase K 0.5 µg/mL",,time to complete degradation,≤ 50 min
CC[C@H](C)[C@H](NC(=O)[C@@H](NC(=O)[C@@H](N)C(C)C)C(C)C)C(=O)N[C@H](C(N)=O)C(C)C,APP,"amyloid aggregation, inhibitor, fluorescence","2 µM, 24 h",,inhibition,0%
CCCCCC/C=C\CCCCCCCC(=O)O,APP,"amyloid beta aggregation, inhibitor","100 µM, 3 h, 37 °C",relative to: untreated,ThT fluorescence,decreased
COc1cc(C=CC(=O)CC(=O)C=Cc2cc(C(F)(F)F)cc(C(F)(F)F)c2)ccc1O,APP,"Aβ aggregation, SDS-PAGE western blot, measured: Aβ1-42 75-200 kDa band","30 µM, 24 h, 37 °C, with: Aβ1-42 10 µM",relative to: DMSO,band density,217 ± 31%
CC1=C[C@H](O)CC(C)(C)[C@H]1/C=C/C(C)=C/C=C/C(C)=C/C=C/C=C(C)/C=C/C=C(C)/C=C/C1=C(C)C[C@@H](O)CC1(C)C,APP,"amyloid beta aggregation, inhibitor","100 µM, 3 h, 37 °C",relative to: untreated,ThT fluorescence,decreased
COC(=O)CCC(C(=O)C=Cc1ccc(O)c(F)c1)C(=O)C=Cc1ccc(O)c(F)c1 (centres unmarked),APP,"Aβ aggregation, SDS-PAGE western blot, measured: Aβ1-42 75-200 kDa band","30 µM, 24 h, 37 °C, with: Aβ1-42 10 µM",relative to: DMSO,band density,1030 ± 313%

# Excerpt of the above:
SMILES,target,test,conditions,how to read,quantity,result
CC[C@@H](C)[C@@H](NC(=O)[C@@H](N)C(C)C)C(=O)N[C@H](C(=O)N[C@@H](C)C(N)=O)[C@@H](C)CC,APP,"amyloid aggregation, inhibitor, fluorescence","4 µM, 24 h",,inhibition,35.1%
